Measured values of several laboratories.
A part holds a random share of what one study measured.

Series 1
Target: RNA binding protein fox-1 homolog 2, RRM domain, GST-SBP tag (RBFOX2, Homo sapiens, UniProt O43251-10, residues 100-194)
Method: RNA Bind-n-Seq
Form: RNA
Medium: in vitro
Concentration: 365 nM
Notes: natural RNA segment, single round, ends assumed
Reference: no-protein control
Direction: higher = stronger binding
Shared flanks, not repeated: GGGAGUUCUACAGUCCGACGAUC … UGGAAUUCUCGGGUGCCAA
Construct (chain): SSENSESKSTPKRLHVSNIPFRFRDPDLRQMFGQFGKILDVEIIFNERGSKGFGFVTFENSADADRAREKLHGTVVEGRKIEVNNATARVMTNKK
`CCUUUAUAGAGAAAGCCUUCCCUCAGCUCUUUUGUUACCUUGAGAUUUGCCAGUUUGGUGAAUACAGAUUGGUUCAUGGUUGUAGGUGUAGCUCAGAGUGCUUGUCUAAC`: “RBNS enrichment (R)” 0.272.
For `AUUUUACAACUUGCUGAGACACAAAUACUGUGCCCUUCCUGUCCUACUGACCACUGGGUAUGUAAUCUUUGAGGGAUAUGCGCUUUUAGGAAAAAGGAUUUCCCUUUAAG`, “RBNS enrichment (R)” read 0.288.
`ACAGAUGGAGCUCCUUCCUAGCUAGGGAGACCUUAUGAGAAGUGGAUGGUAGGAGGAGUCACUAAUGUUUCAAUCUCUAUUUCUGUAAUCUUGGGCAAUAAUGCAUAGGA` — result for “RBNS enrichment (R)”: 0.457.
`AAUGGCCACCCUGUGUUGUGGGAACUGAGAAGGGCAAUAUAAACCUGAGAGGUUCCUUUGUGUGGUGGGGCCUGAAGAAGAAAGCCCCACGGCUGGACAGCUGUUCUCUC`: “RBNS enrichment (R)” 0.626.
For `UGGAGUCAGCUGCACACCAGUAGUAUGGCAUGCUACGAUCAGGUUCUGUCCUGAAAGCUUUGCCUCUUUCUUGGCAAAGUUUCUGGUAUGGUCAAGCUUGUAAAUAACUU`, “RBNS enrichment (R)” read 0.878.
Under “RBNS enrichment (R)”, `UCUCUAGCUCACUGGCUCUGUGGGCUUGGGCUCUGCCCCUACAACGGCUCUCAGAAGCAUUCACACGCACAGAUGUGCAACCUCAGCCAGAAGUUGAAGCUCUUUAAGCC` is recorded as 0.252.
Under “RBNS enrichment (R)”, `CAGGUAAAAAAAUGAGUACACUGAACAAUAUGUAAUUCAUACGUAUUUUGCAACUUACCUGUGAGCCUGCAAUUAUUUGAGGUUUUUGAGCAAUUGGUGUUUCUAUGUGU` is recorded as 0.546.
`UGUUUUUAAAGGUGGAUUUUGUUUAAAAAAUCUUAAUGAAUGAGUCUGUUGUGUGUCAUGCCAGUGAGGGACGUCAGACUUGGCUCAGCUCGGGGAGCCUUAGCCGCCCA` — result for “RBNS enrichment (R)”: 0.569.
For `UCCUUGUCCCCGCUUUCUUGGGGGCUUGCUACUUUUUGUCUUCUAUUGUGUGGCUUUCUGAGUAUUUGAACCCCAGUCCUGUGUCACCUUCCUUUUUCCUUCUAUGUCCC`, “RBNS enrichment (R)” read 1.27.
Under “RBNS enrichment (R)”, `UCUGGCUAUGUGCUGAAGCCAGAAUUCCUGAGAGAUACCCAGAGUUCAUUCAAUCCUGAGAGGCCAAUUAGUCUUUAUAAGGCCCAGAUCCUUGUAGUCCAGGUGAUCAG` is recorded as 0.497.
For `GGACCUGACCUGGCUCAUGAUGCCAAGAGGAAGACAGAGCUCUAGCCUCGUCUUCUCCUGCCCACAGCCCCUGCCAGAGUUCUUUUGCCCAGCAGAGGCACCCCUCAUGA`, “RBNS enrichment (R)” read 0.349.
`AUCCUCCUGCCUCUGUCUCCUGAAUGUUGGGACAAAAGUAUGUGCCACCCCUACCCAGCGAGAACAGUUUUUAAUGAAAACUGAGCUAGAUUGUCCAGUUCUGGUAAACA` — result for “RBNS enrichment (R)”: 1.66.

Series 2
Target: Ras GTPase-activating protein-binding protein 1, full length (G3BP1, Homo sapiens, UniProt Q13283)
Sequence of UniProt Q13283 (whole entry, looked up): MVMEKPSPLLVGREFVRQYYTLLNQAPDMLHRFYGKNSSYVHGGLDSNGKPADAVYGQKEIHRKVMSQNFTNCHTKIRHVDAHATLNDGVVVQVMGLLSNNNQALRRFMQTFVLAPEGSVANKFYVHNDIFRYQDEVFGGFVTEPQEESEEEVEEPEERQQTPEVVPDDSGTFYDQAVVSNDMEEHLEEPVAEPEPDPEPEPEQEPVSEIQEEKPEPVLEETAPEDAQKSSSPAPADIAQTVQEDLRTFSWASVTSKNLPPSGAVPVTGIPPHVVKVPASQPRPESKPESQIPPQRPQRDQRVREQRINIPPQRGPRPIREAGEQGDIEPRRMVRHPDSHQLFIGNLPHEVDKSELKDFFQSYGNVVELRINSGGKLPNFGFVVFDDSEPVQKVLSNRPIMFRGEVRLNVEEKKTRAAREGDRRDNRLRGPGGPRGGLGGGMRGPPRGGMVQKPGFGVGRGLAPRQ
Method: RNA Bind-n-Seq
Form: RNA
Medium: in vitro
Concentration: 200 nM
Notes: whole 134-nt RNA, ends assumed
Together with: 150 mM LiCl
Reference: input library
Direction: higher = stronger binding
Each molecule: 7-deaza-guanosine replaces G
Shared flanks, not repeated: GGGAGUUCUACAGUCCGACGAUC … UGGAAUUCUCGGGUGUCAAGG
`UCCUGUGCUACACAUCGUAUGUACCGAAUCGGGAAAAAAAGGGAAAAAGGGUUUUUGGGAAAGUAUUAUGUUACGCCGUUCGGAUCUGCA` gave a log2 enrichment of -1.05.
`ACCAUGCAGGUGGGCAUCUUUGGGAAGUGGGGCAAGGGGGGGAUCGGGAGGGGGGUAACACUUUGGGAACAGGUGGUCCCAGGUCGUUUC` has a log2 enrichment of -0.0902.
`UCAAGUCCUGUGCUACACAUCGUAUGUACCGAAUCGGGUGGGUUUUUGGGUGGGAAAGUAUUAUGUUACGCCGUUCGGAUCUGCACUUCC` gave a log2 enrichment of 0.0739.
`GUCCUGUGCUACACAUCGUAUGUACCGAAUCGGGGUUUUUGGGGUUUUUGGGGAGGGGAAAGUAUUAUGUUACGCCGUUCGGAUCUGCAC` gave a log2 enrichment of 0.155.
`CUCAAGUCCUGUGCUACACAUCGUAUGUACCGAAUCGGUUUGGUUUUUGGAGGAAAGUAUUAUGUUACGCCGUUCGGAUCUGCACUUCCA` gave a log2 enrichment of 0.351.
With `CCUGUGCUACACAUCGUAUGUACCGAAUCGGGGUUUUUUGGGUUUUUUGGGGUUUUUUGGGAAAGUAUUAUGUUACGCCGUUCGGAUCUG` the log2 enrichment was 0.655.
For `UAACUUUAGAGGAGGAUCUGAUGGAUAUGGCAGUGGACGUGGAUUUGGGGAUGGCUAUAAUGAGUAUGGAGGAGGACCUGGAGGUGGCAA`, the log2 enrichment was 0.288.
With `GCAGGAAGUAAAAACAAAUGGAAAUGCUUCGGAUAGUGGCAGGGGUGGGGGUUGCUAAGGGAAGGGUGGGAUGGGAGUGGGUAAAGAGUU` the log2 enrichment was 0.0889.
The log2 enrichment of `CCUCAAGUCCUGUGCUACACAUCGUAUGUACCGAAUCGGUUUGGUGGUUUGGAAAGUAUUAUGUUACGCCGUUCGGAUCUGCACUUCCAG` is reported as -0.802.
With `UCAAGUCCUGUGCUACACAUCGUAUGUACCGAAUCGGGGUUGGGGUUGGGGUUGGAAAGUAUUAUGUUACGCCGUUCGGAUCUGCACUUC` the log2 enrichment was -0.65.
`CAAGUCCUGUGCUACACAUCGUAUGUACCGAAUCGGUUUUUUUGGUUUUUGGAGGAAAGUAUUAUGUUACGCCGUUCGGAUCUGCACUUC` has a log2 enrichment of -0.256.

Series 3
Target: Sal-like protein 4, full length isoform A (SALL4, Homo sapiens, UniProt Q9UJQ4, residues 1-1053)
Sequence of UniProt Q9UJQ4 (whole entry, looked up): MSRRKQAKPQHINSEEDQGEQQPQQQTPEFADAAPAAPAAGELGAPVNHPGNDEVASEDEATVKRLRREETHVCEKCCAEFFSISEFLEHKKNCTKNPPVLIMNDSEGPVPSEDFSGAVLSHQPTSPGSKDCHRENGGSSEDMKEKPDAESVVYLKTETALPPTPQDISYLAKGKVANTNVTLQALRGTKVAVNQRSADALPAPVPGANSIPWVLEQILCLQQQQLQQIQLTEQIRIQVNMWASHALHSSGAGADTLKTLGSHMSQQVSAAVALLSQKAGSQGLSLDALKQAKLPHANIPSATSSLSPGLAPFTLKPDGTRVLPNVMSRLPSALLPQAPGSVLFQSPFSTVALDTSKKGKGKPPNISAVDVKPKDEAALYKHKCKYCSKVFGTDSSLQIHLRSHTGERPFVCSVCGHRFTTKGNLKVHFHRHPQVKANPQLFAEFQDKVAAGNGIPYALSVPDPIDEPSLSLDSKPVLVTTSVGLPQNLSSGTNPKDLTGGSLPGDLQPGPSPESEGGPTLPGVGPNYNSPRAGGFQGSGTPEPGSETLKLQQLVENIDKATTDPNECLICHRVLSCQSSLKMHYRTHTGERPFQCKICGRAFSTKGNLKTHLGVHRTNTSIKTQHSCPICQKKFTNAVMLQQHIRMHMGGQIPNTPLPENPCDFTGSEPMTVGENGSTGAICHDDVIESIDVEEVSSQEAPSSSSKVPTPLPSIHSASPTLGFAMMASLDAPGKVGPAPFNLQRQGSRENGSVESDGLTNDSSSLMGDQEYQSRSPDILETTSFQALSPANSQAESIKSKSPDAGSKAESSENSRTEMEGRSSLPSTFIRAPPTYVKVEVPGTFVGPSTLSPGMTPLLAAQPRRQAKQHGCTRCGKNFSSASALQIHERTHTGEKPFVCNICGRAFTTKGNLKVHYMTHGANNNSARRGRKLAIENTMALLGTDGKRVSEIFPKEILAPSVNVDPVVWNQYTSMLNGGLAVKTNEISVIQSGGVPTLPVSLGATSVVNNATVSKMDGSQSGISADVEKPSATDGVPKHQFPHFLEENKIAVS
Method: universal PBM
Form: double-stranded DNA, one strand shown
Medium: in vitro
Concentration: 600 nM
Notes: 8-mer, flanks averaged, mean of replicates
Direction: higher = stronger binding
For `GACACTCA`, the E-score was -0.109.
`AGTGGCCC` gave an E-score of -0.269.
The E-score of `CCACCGGC` is reported as -0.371.
With `CACCACGC` the E-score was -0.24.
The E-score of `AAGGTGGT` is reported as 0.0426.
`AGATAGGC` has an E-score of -0.0463.
`GCCGGAGA` has an E-score of -0.199.
For `ACGTTGGC`, the E-score was -0.0541.
With `CGCGTCTC` the E-score was -0.134.
`ACATTGAC` has an E-score of 0.188.
For `GGAGTTAA`, the E-score was 0.0405.
For `ACAACACC`, the E-score was 0.104.
With `AACCTGCT` the E-score was -0.185.
`AAGGAAAG` gave an E-score of 0.0124.
With `CGGCTCTC` the E-score was -0.242.
For `TCGCGGCA`, the E-score was -0.205.
The E-score of `AACAGGGT` is reported as -0.197.

Series 4
Target: RING finger protein unkempt homolog, zinc fingers 1-6, GST-SBP tag (UNK, Homo sapiens, UniProt Q9C0B0, residues 30-357)
Sequence of UniProt Q9C0B0 (30-357, looked up): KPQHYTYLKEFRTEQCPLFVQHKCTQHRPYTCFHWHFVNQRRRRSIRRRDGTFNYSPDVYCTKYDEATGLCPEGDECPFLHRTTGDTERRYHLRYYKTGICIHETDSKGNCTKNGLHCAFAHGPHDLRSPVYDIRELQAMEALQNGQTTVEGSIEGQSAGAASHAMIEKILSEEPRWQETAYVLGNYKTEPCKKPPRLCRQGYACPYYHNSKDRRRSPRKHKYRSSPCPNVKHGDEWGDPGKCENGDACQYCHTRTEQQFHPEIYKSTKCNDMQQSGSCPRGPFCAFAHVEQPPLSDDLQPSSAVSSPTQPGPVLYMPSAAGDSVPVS
Method: RNA Bind-n-Seq
Form: RNA
Medium: in vitro
Concentration: not given
Notes: RNA with constant flanks, ends assumed
Reference: input RNA pool
Direction: higher = stronger binding
Shared flanks, not repeated: GGGAGUUCUACAGUCCGACGAUC … CAACAGAGGAUUGAGCAUCA
`UAUCCAAAUCUAAACAUGAUUGAGACAUUUAUUUGUCAAGUGUGUGAGGAGACACUUUCACACCGCGUGAAUUCCCCUGAACAGCUAACUGGAAUGAGGAUGCUUAGACAUCUCACUAUA` has a bound/input enrichment of 0.22 ratio.
`UCCCUGUGCUUACUAAAUGAUUUGUGAAGAACUGUCCCCAAGUUGUAACCCAUGUACUCCCUCCGAGUUGCUGCAAAAUGUCUCUUAUAUUGAUGUUGUUUGUUUACCUGACUCUCCAUA` has a bound/input enrichment of 0.934 ratio.
`AUCUCUUUUCCCCUGUCCUGAUUUUAAAAGCCCCCUCCUUUUUUUUUUUUUUUUUCUUUUUUCCGGCAUAUGUAGUAAUAUUAGAAACAUUUAAUUUGGGAAACUUUGAUUCUUGAAAGA` has a bound/input enrichment of 7.93 ratio.
For `AUGAACCUACAAAUAGUUGACAGAGCCAUUCAGGUAGUUCGAAGUGCUUUAGCUAACCAGACCGAUUGGACAGAAAUUGGGUUAAUUGUGAAAGAAGCCCAGGCUCAAGGAGACCCUGUU`, the bound/input enrichment was 0.236 ratio.
`GUGUGUGGGGUAGCCUUGGCCCCUGCCUUGGCCUUGCCUCUCUUCCCUGUCACCUGCCCCCCGUUAUUUUUUUUUUGACCACCACGUGAUUAUGGUCGGUGCUGCCUCCCCCCCGACCUG` gave a bound/input enrichment of 4.82 ratio.
`AUUGUUGAAGCUAACCCACUCCUAGAAGCCUUUGGAAAUGCGAAGACUGUUCGCAACAAUAACCGCAGUCGAUUUGGGAAAUUUGUAGAAAUACAUUUUAAUGAAAAGAGCUCAGUUGUU` has a bound/input enrichment of 0.298 ratio.
The bound/input enrichment of `CAAACCUGCAAUCCUGGAGAAGUAGGGCGAACAGAUAAGGAAAGAAAAAAAUUGAAGCCGGACUUUGGGGCCAAGGGGAGUUCUUUCAAUGCACUCCCCCUUUCUCCCCACCGCCACAGC` is reported as 0.536 ratio.
With `AAUGUAGAUUUUUGCUUUUCCUGUUUUUGUUUUGAAAAGUUACUCCAAUUGCUAAAUUGGCCGUUUUUUUGUCCUUAUAAAUAUAACAUUUAAAAAAGAUACACAAUUAUAUAAAAUGUU` the bound/input enrichment was 3.11 ratio.
`GAGGCCCUGAAGAUCUUCCAGAAAAUAAAGGAUGAAAAGAGCCCAGAGUGGUCCAAAUUUUCCGGAUUGAUCAAAAAAUUUGUCACUGAUUCCAAUGCAGUGGUUCAAUUGAAAGGAUUA` has a bound/input enrichment of 0.114 ratio.
`GUUAAUCGUGAUUCAGAAAAUCUAGCUUCACCAUCUGAAUAUCCAGAAAAUGGAGAGAGAUUCCGUUUCCUAAGCAAACCUGUUGAUGAGAAUCACCAGCAGGAUGGAGAUGAAGAUUCC` gave a bound/input enrichment of 0.13 ratio.
With `AAUCAGGCAAAGAAAGGUAGUGCAAGUUGUGGGACCAGUUUUCGAGGAACAGUUGGACGGACCCGAGAUUACACUGUUUUACAUCCAUCUUGCUUGUCAGUGUGUAAUGUUACCAUCCAG` the bound/input enrichment was 0.132 ratio.

For quick reference, copied from above (series 1):
Under “RBNS enrichment (R)”, `CAGGUAAAAAAAUGAGUACACUGAACAAUAUGUAAUUCAUACGUAUUUUGCAACUUACCUGUGAGCCUGCAAUUAUUUGAGGUUUUUGAGCAAUUGGUGUUUCUAUGUGU` is recorded as 0.546.
`UGUUUUUAAAGGUGGAUUUUGUUUAAAAAAUCUUAAUGAAUGAGUCUGUUGUGUGUCAUGCCAGUGAGGGACGUCAGACUUGGCUCAGCUCGGGGAGCCUUAGCCGCCCA` — result for “RBNS enrichment (R)”: 0.569.
`ACAGAUGGAGCUCCUUCCUAGCUAGGGAGACCUUAUGAGAAGUGGAUGGUAGGAGGAGUCACUAAUGUUUCAAUCUCUAUUUCUGUAAUCUUGGGCAAUAAUGCAUAGGA` — result for “RBNS enrichment (R)”: 0.457.
For `AUUUUACAACUUGCUGAGACACAAAUACUGUGCCCUUCCUGUCCUACUGACCACUGGGUAUGUAAUCUUUGAGGGAUAUGCGCUUUUAGGAAAAAGGAUUUCCCUUUAAG`, “RBNS enrichment (R)” read 0.288.
`AAUGGCCACCCUGUGUUGUGGGAACUGAGAAGGGCAAUAUAAACCUGAGAGGUUCCUUUGUGUGGUGGGGCCUGAAGAAGAAAGCCCCACGGCUGGACAGCUGUUCUCUC`: “RBNS enrichment (R)” 0.626.
